{"data": "Measurements of several laboratories", "note": "A part holds a random share of what one study measured."}
{"data": "Block 1", "target": "Ras GTPase-activating protein-binding protein 1, C-terminal RGG region (G3BP1, Homo sapiens, UniProt Q13283)", "technique": "RNA Bind-n-Seq", "molecule type": "RNA", "sample": "in vitro", "concentration": "1 µM", "notes": "whole 134-nt RNA, ends assumed", "with": "150 mM KCl", "relative to": "input library", "reading": "higher = stronger binding", "all sequences stand within": "GGGAGUUCUACAGUCCGACGAUC … UGGAAUUCUCGGGUGUCAAGG", "chain of UniProt Q13283 (whole entry, looked up)": "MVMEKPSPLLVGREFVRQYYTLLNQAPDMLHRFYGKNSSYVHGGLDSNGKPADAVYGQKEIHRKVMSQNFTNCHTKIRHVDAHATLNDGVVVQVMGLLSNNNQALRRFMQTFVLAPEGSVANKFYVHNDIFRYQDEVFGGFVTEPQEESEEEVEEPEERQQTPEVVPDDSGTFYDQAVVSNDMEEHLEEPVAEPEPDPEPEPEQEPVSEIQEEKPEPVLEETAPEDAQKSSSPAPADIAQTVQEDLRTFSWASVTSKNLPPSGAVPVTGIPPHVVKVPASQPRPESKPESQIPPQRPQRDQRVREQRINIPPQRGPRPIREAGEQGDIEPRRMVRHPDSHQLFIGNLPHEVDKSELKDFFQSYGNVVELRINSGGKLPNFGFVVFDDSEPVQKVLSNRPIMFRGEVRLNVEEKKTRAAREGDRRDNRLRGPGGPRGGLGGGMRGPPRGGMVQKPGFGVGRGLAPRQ"}
{"Strand": "AAGUCCUGUGCUACACAUCGUAUGUACCGAAUCGGUUUGGUUUUUUUGGAAAAAGGAAAGUAUUAUGUUACGCCGUUCGGAUCUGCACUU", "log2 enrichment": -1.94}
{"Strand": "CUGUGCUACACAUCGUAUGUACCGAAUCGGGGUUUUUUGGGGUUUUUUGGGGUUUUUUGGGGAAAGUAUUAUGUUACGCCGUUCGGAUCU", "log2 enrichment": -0.146}
{"Strand": "CACAGACAACACGCACCCACACAGACACAGAGGGAAGGGGUUGGGAUGGGGACAGGGUGCACAGCAGGGCGGGGUCGGACCCCAGCCCCU", "log2 enrichment": -0.915}
{"Strand": "CGCAGAAGUCGCGUGUCUAGGUGAGUCGCGGUGGGUCCUCGCUUGCAGUUCAGCGACCACGGUGGGUACCGUUUUUGCGAGGAUUGUUUG", "log2 enrichment": -1.61}
{"Strand": "AGUCCUGUGCUACACAUCGUAUGUACCGAAUCGGGUUUUGGGGUUUUGGGUUUUGGGGAAAGUAUUAUGUUACGCCGUUCGGAUCUGCAC", "log2 enrichment": 0.778}
{"Strand": "CACAGACAACACGCACCCACACAGACACAGAGGGAAGGGGUUGGGAUGGGGACAGGGUGCACAGCAGGGCGGGGUAGGACCCCACCCCCU", "log2 enrichment": -0.849}
{"Strand": "CCUGUGCUACACAUCGUAUGUACCGAAUCGGGGAAAAAGGGGAAAAAGGGGAAAAAGGGGAAAGUAUUAUGUUACGCCGUUCGGAUCUGC", "log2 enrichment": 0.436}
{"Strand": "UAACUUUAGAGGAGGAUCUGAUGGAUAUGGAAGUGGACGUGGAUUUGGGGAUGGCUAUAAUGGGUAUGGAGGAGGACCUGGAGGUGGCAA", "log2 enrichment": -0.845}
{"Strand": "AAGUCCUGUGCUACACAUCGUAUGUACCGAAUCGGUGGAAAAAAAGGUUUUUUUGGAAAGUAUUAUGUUACGCCGUUCGGAUCUGCACUU", "log2 enrichment": -2.32}
{"data": "Block 2", "target": "RNA binding protein fox-1 homolog 2, RRM domain, GST-SBP tag (RBFOX2, Homo sapiens, UniProt O43251-10, residues 100-194)", "technique": "RNA Bind-n-Seq", "molecule type": "RNA", "sample": "in vitro", "concentration": "365 nM", "notes": "natural RNA segment, single round, ends assumed", "relative to": "no-protein control", "reading": "higher = stronger binding", "all sequences stand within": "GGGAGUUCUACAGUCCGACGAUC … UGGAAUUCUCGGGUGCCAA"}
{"Strand": "GCUGUACAAGUAUAGGCAGAGUUAUUUUCCUGUUUACAUUUUUUUUUUGUUUUGGGGAAAAAAUUGGUAGGUGUCUAAUUACUGUUUACUUCAUUGUUAUAUUGCAGUAA", "RBNS enrichment (R)": 0.877}
{"Strand": "GAGCCUGCUUCUGGGCCACCCCUCCUGGUUCAGGGCUGUGCUCACAGCAGAUUCUUGCAGUAUCAAGUAUACGCCUGUGGCAGAAUAAGUAUCUGUAAAUACAUGUUUAA", "RBNS enrichment (R)": 0.417}
{"Strand": "AGUGUUUCUGGCUCUCAGCCCUAAGGCCCUGCAAACUCUAACUUAUUUCCCAAUUAGUCUGUAUCUAUACUUGGGCUCUGUAUGUGAAUGAAGGUUGGUCACCCAUCCAG", "RBNS enrichment (R)": 2.46}
{"Strand": "UCAAUCAGUAUUUAUGUUGAAAUUUCUAACAUUAAAUCUAGUCUCUAUCCUGUUAAUUUAAUUUUUAAAUGCUUUAUCCAUUUGUGCAAAGGUAAACGCAGAUUGUAUCU", "RBNS enrichment (R)": 0.934}
{"Strand": "GAAAGAGAAUAGUAAAUGCCUUUGGGAACACGGUUGAGAGCCAGCCAGGACGCAAGGGGAGCAAUGAAUGUCUGUGUCUGAUAUGCUCCUCCCAGGUUGGUGUCCCACUG", "RBNS enrichment (R)": 2.71}
{"Strand": "AUUGAUUGAUUGAUUGACUGAUUGUUUUAACUGAUUACUGUAGAUCAACCUGAUGAUUUGUUUGUUUGAAAUUGGCAGGAAAAAUGCAGCUUUCAAAUCAUUGGGGGGAG", "RBNS enrichment (R)": 1.33}
{"Strand": "UUUCUGAUUUAAAUUAGCUCCUUGUGUCCUUGCUUUAUCUUUGGGGCAUCUUUAGUUCCAAGAACUGGAAGCCAGAGCUGCAGGCUCCUCCCACCUCUCUCCAGGCUGGU", "RBNS enrichment (R)": 1.37}
{"Strand": "UGUGAAUCUGUAUAUUAUUCUGAUGGAUACAGAUAAUGAUCUUUUCUCUUGUGAGGUAUCUUCAUUUAUGCACUGUCCAAAAAUAGCCAUGUGUAAGAGUCUUUCUGUAU", "RBNS enrichment (R)": 0.411}
{"data": "Block 3", "target": "Histone acetyltransferase KAT6A, winged helix 2, GST fusion (KAT6A, Homo sapiens, UniProt Q92794, residues 85-181)", "technique": "protein binding microarray", "molecule type": "double-stranded DNA, one strand shown", "sample": "in vitro", "concentration": "not given", "notes": "8-mer, flanks averaged, mean of 2 arrays, mostly near background", "relative to": "not given", "reading": "higher = stronger binding", "Residues (chain)": "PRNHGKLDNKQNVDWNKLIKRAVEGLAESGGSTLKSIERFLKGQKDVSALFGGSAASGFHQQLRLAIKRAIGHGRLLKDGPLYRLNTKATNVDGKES"}
{"Strand": "ACAGGCAA", "E-score": 0.0209}
{"Strand": "CACTTCTG", "E-score": -0.142}
{"Strand": "GCTCGTAA", "E-score": -0.0697}
{"Strand": "AAGCGATA", "E-score": 0.0683}
{"Strand": "GTTGCTGA", "E-score": 0.115}
{"Strand": "GTTCCAGA", "E-score": -0.026}
{"Strand": "GAGCAACC", "E-score": 0.0862}
{"Strand": "CGCCCTGC", "E-score": 0.19}
{"Strand": "CTATTAGA", "E-score": -0.042}
{"Strand": "ATTCGACG", "E-score": 0.0246}
{"Strand": "TCTCCTCA", "E-score": -0.0337}
{"Strand": "AACTCGTG", "E-score": -0.13}
{"Strand": "CGATGATC", "E-score": 0.00724}
{"Strand": "AAGTTTTG", "E-score": 0.0639}
{"Strand": "CCACCTGG", "E-score": 0.105}
{"Strand": "TGGTCGAA", "E-score": -0.115}
{"Strand": "GTCGAGAA", "E-score": 0.0501}
{"Strand": "AAACTCGG", "E-score": 0.0518}
{"Strand": "CGGAAACG", "E-score": -0.0681}
{"Strand": "CGCCTTAG", "E-score": -0.0342}
{"Strand": "CATGCCCG", "E-score": 0.118}
{"data": "Block 4", "target": "Prothrombin, mature alpha-thrombin (F2, Homo sapiens, UniProt P00734)", "technique": "aptamer microarray, sandwich", "molecule type": "DNA with 2'F-ANA", "sample": "in vitro", "concentration": "200 nM", "notes": "whole 15-mer aptamer, many near background", "with": "Cy3 exosite-II aptamer, 400 nM", "reading": "higher = stronger binding", "strand": "GGTTGGTGTGGTTGG"}
{"Modification": "2'F-ANA at 1 5 7 8 10 12 13 14 15", "mean fluorescence intensity [a.u.]": 48.4}
{"Modification": "2'F-ANA at 2 3 4 6 7 8 10 12 13", "mean fluorescence intensity [a.u.]": 222}
{"Modification": "2'F-ANA at 3 5 7 9 10 11 12 15", "mean fluorescence intensity [a.u.]": 64.2}
{"Modification": "2'F-ANA at 1 2 3 13 14", "mean fluorescence intensity [a.u.]": 65}
{"Modification": "2'F-ANA at 3 5 6 8 9 11 12 15", "mean fluorescence intensity [a.u.]": 168}
{"Modification": "2'F-ANA at 3 4 5 6 7 8 9 11 13", "mean fluorescence intensity [a.u.]": 71.3}
{"Modification": "2'F-ANA at 3 7 8 10 12 14", "mean fluorescence intensity [a.u.]": 428}
{"Modification": "2'F-ANA at 3 4 7 9 10 11 12 15", "mean fluorescence intensity [a.u.]": 284}
{"Modification": "2'F-ANA at 1 2 3 4 7 8 10 11 14", "mean fluorescence intensity [a.u.]": 72.5}
{"Modification": "2'F-ANA at 2 3 5 6 11 12 13 14 15", "mean fluorescence intensity [a.u.]": 59.4}
{"Modification": "2'F-ANA at 1 5 8 12 15", "mean fluorescence intensity [a.u.]": 131}
{"Modification": "2'F-ANA at 1 4 5 6 7 8 10", "mean fluorescence intensity [a.u.]": 56.9}
{"Modification": "2'F-ANA at 2 3 5 8 9 11", "mean fluorescence intensity [a.u.]": 108}
{"Modification": "2'F-ANA at 9 10 12 14", "mean fluorescence intensity [a.u.]": 121}
{"Modification": "2'F-ANA at 1 3 4 5 6 7 9 14", "mean fluorescence intensity [a.u.]": 45.6}
{"Modification": "2'F-ANA at 1 2 3 4 7 10 11 13 15", "mean fluorescence intensity [a.u.]": 52.9}
{"Modification": "2'F-ANA at 1 2 4 7 8 9 10 13 14", "mean fluorescence intensity [a.u.]": 49.9}
{"Modification": "2'F-ANA at 1 2 4 6 8 9 11 12", "mean fluorescence intensity [a.u.]": 227}
{"Modification": "2'F-ANA at 3 4 6 8 9 11 12 14", "mean fluorescence intensity [a.u.]": 295}
{"Modification": "2'F-ANA at 2 3 5 8 10 11 12 14", "mean fluorescence intensity [a.u.]": 73.8}
{"Modification": "2'F-ANA at 3 4 7 9 14 15", "mean fluorescence intensity [a.u.]": 293}
{"Modification": "2'F-ANA at 1 2 3 4 5 6 7 8 10 14 15", "mean fluorescence intensity [a.u.]": 57.1}
{"Modification": "2'F-ANA at 1 3 4 5 6 9 10", "mean fluorescence intensity [a.u.]": 45.8}
{"Modification": "2'F-ANA at 2 13 15", "mean fluorescence intensity [a.u.]": 344}
{"Modification": "2'F-ANA at 1 3 5 6 7 8 9 12", "mean fluorescence intensity [a.u.]": 161}
{"note": "A few entries again (block 3):"}
{"Strand": "ACAGGCAA", "E-score": 0.0209}
{"Strand": "CACTTCTG", "E-score": -0.142}
{"Strand": "GCTCGTAA", "E-score": -0.0697}
{"Strand": "AAGCGATA", "E-score": 0.0683}
{"Strand": "GTTGCTGA", "E-score": 0.115}
{"Strand": "GTTCCAGA", "E-score": -0.026}
